Published values of several laboratories.
Lines come from different studies, so protocols differ. “And” joins repeats or separate records; there may be more than shown. Numbers after ± are the reported error.
SCRIB PDZ3 domain: Protein scribble homolog, PDZ3 domain (SCRIB, Homo sapiens, UniProt Q14160)
Sequence of UniProt Q14160 (whole entry, looked up): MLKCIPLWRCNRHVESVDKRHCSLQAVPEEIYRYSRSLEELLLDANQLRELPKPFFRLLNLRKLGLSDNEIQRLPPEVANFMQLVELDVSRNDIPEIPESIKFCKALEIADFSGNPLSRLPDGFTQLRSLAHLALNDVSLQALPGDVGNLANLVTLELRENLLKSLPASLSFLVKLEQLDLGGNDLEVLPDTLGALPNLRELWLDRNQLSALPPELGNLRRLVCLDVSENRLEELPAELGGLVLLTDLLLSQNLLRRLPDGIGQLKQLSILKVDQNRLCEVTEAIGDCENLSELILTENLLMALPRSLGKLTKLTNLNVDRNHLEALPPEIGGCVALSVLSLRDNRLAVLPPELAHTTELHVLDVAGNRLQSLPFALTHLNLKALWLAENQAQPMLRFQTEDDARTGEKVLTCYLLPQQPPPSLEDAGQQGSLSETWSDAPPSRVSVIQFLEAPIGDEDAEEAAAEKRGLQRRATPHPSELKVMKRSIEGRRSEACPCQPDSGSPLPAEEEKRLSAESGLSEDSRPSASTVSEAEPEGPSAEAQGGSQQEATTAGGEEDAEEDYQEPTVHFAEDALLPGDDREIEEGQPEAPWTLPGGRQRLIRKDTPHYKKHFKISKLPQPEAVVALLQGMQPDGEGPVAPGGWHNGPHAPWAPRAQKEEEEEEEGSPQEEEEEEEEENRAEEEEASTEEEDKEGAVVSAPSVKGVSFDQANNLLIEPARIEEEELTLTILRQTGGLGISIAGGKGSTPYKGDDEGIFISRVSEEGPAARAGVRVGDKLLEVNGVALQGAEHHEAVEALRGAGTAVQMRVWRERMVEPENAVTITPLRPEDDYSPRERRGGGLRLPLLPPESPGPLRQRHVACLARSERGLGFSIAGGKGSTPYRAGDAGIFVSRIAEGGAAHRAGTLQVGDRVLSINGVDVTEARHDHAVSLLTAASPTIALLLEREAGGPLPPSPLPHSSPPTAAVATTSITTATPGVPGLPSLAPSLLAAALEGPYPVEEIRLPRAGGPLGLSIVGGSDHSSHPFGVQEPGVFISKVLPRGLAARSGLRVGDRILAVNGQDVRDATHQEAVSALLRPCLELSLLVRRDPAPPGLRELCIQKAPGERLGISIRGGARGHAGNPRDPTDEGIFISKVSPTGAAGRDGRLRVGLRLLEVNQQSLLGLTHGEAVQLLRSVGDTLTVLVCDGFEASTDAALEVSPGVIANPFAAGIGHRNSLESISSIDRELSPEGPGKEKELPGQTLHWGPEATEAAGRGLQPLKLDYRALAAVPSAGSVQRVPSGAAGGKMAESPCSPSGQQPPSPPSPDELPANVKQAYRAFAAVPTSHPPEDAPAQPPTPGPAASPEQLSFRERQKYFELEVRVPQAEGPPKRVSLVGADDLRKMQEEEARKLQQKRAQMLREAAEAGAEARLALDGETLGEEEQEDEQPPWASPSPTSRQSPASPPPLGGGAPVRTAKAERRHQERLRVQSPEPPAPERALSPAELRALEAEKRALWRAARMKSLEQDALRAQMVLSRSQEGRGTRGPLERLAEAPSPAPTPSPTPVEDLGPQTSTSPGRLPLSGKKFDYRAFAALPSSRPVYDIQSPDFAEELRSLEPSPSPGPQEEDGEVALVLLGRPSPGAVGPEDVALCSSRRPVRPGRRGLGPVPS
Sequence of UniProt P07339 (whole entry, looked up): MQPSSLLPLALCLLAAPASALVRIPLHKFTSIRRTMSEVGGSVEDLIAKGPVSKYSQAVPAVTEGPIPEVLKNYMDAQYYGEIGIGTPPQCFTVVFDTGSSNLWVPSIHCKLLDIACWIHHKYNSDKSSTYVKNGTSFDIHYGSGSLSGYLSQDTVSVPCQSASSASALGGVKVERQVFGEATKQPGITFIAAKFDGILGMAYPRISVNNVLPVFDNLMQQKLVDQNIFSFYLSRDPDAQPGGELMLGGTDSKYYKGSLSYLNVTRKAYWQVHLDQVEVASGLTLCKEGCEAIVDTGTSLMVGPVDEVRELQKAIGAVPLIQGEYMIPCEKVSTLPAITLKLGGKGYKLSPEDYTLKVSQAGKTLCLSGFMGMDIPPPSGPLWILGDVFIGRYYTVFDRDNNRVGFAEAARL

C=CC(=O)N1CC[C@H](n2nc(C#Cc3cc(OC)cc(OC)c3)c3c(N)ncnc32)C1
any adverse drug reaction, any grade (human patients; oral, dose not given, QD regimen, adverse drug reaction, with: ferric citrate hydrate): 100%

CC1(C)C(/C=C(\Cl)C(F)(F)F)C1C(=O)OC(C#N)c1cccc(Oc2ccccc2)c1 (stereo not drawn)
enzyme contribution to clearance (measured: CYP3A4; human, age 1 year): 1.01%

COc1cc2c(Oc3ccc4[nH]c(C)cc4c3F)ccnc2cc1OCC1(N)CC1
grade 3 Hematochezia (paediatric recurrent refractory sarcoma; concentration not given, whole group): 0%

COc1ccc(-c2c(-c3ccc(C#N)c(F)c3)nc(N3CCC(N)CC3)n(C)c2=O)cc1F
treatment-related adverse event incidence (measured: Nausea; neuroendocrine neoplasm patients; oral, 60 mg, grade 3 to 4, dose expansion): 0%

O=C(O)CCCOc1ccc(F)cc1-c1cc(-c2ccccc2C(F)(F)F)n(-c2ccccc2)n1
organ weight (measured: adrenals; Crl:CD(SD) rats, male; iv, 25 µg/kg, 14 days): 70 ± 10.9 mg

COc1cc(Nc2ncc(F)c(Nc3ccc4c(n3)NC(=O)C(C)(C)O4)n2)cc(OC)c1OC
IC50 (Cathepsin D (CTSD, Homo sapiens, UniProt P07339)): > 10 µM

O=C(O)CCC(CP(=O)(O)O)C(=O)O (stereo not drawn)
stability (rat plasma; 28 days, -80 °C, frozen storage): stable

COc1ccc(CCC2CCCC(CCc3ccc(OC)cc3)N2C[C@@H](O)CO)cc1.Cl (stereo in doubt)
APD90 change (rabbit Purkinje fibres; 0.1 µM, cycle length 0.5 s; relative to: baseline): 19.4 ± 1.8%

N=C(N)c1ccc(C=C2c3ccccc3-c3ccccc32)cc1
CC50 (African green monkey cells; 5 days): 2.92 µM

C=CCNc1c(O)cc2c(O)c1C[C@@H](C)C[C@H](OC)[C@H](O)[C@@H](C)/C=C(\C)[C@H](OC(N)=O)[C@@H](OC)/C=C\C=C(/C)C(=O)N2
patients with diarrhoea TEAE (unresectable or metastatic STS, GIST, other; intravenous, 90 mg/m^2): 33%

CC[C@H](C)[C@H](NC(=O)[C@H](Cc1ccccc1)NC(=O)[C@H](CCC(=O)O)NC(=O)[C@H](CCCCN)NC(=O)[C@H](C)NC(=O)[C@H](C)NC(=O)[C@H](CCC(N)=O)NC(=O)CNC(=O)[C@H](CCC(=O)O)NC(=O)[C@H](CC(C)C)NC(=O)[C@H](Cc1ccc(O)cc1)NC(=O)[C@H](CO)NC(=O)[C@H](CO)NC(=O)[C@@H](NC(=O)[C@H](CC(=O)O)NC(=O)[C@H](CO)NC(=O)[C@@H](NC(=O)[C@H](Cc1ccccc1)NC(=O)[C@@H](NC(=O)CNC(=O)[C@H](CCC(=O)O)NC(=O)[C@H](C)NC(=O)N(N)Cc1c[nH]cn1)[C@@H](C)O)[C@@H](C)O)C(C)C)C(=O)N[C@@H](C)C(=O)N[C@@H](Cc1c[nH]c2ccccc12)C(=O)N[C@@H](CC(C)C)C(=O)N[C@H](C(=O)N[C@@H](CCCNC(=N)N)C(=O)NCC(=O)N[C@@H](CCCNC(=N)N)C(=O)NCC(=O)O)C(C)C
clearance (male ICR mice, plasma; intravenous, 1 mg/kg): 7.01 mL/min/kg

COc1cccc(Oc2ccccc2NC(=O)CNC(=O)c2cccc3ccccc23)c1
serum chloride (esterase-deficient SCID mice, male; oral, 15 mg/kg/day, 14 days, toxicity study): 110 mmol/L and 108 mmol/L

COc1ncccc1-c1cnn2ccc(N3CCN(C(=O)OC(C)C)CC3)nc12
drug concentration (rat, thermal hyperalgesia model, brain; oral, 0.3 mg/kg, 180 min): 170 nM

CC[C@H](C)[C@H](NC(=O)[C@H](Cc1ccccc1)NC(=O)[C@H](CCC(=O)O)NC(=O)[C@H](CCCNC(=N)N)NC(=O)[C@H](C)NC(=O)[C@H](C)NC(=O)[C@H](CCC(N)=O)NC(=O)[C@H](CCC(=O)O)NC(=O)[C@H](CCC(=O)O)NC(=O)[C@H](CC(C)C)NC(=O)[C@H](Cc1ccc(O)cc1)NC(=O)[C@H](CO)NC(=O)[C@H](CO)NC(=O)[C@@H](NC(=O)[C@H](CC(=O)O)NC(=O)[C@H](CO)NC(=O)[C@@H](NC(=O)[C@H](Cc1ccccc1)NC(=O)[C@@H](NC(=O)CNC(=O)[C@H](CCC(=O)O)NC(=O)[C@H](C)NC(=O)CCc1cnc[nH]1)[C@@H](C)O)[C@@H](C)O)C(C)C)C(=O)N[C@@H](C)C(=O)N[C@@H](Cc1c[nH]c2ccccc12)C(=O)N[C@@H](CC(C)C)C(=O)N[C@H](C(=O)N[C@@H](CCCNC(=N)N)C(=O)NCC(=O)N[C@@H](CCCNC(=N)N)C(=O)N[C@@H](CCCCNC(=O)COCCOCCNC(=O)COCCOCCNC(=O)CC[C@H](NC(=O)CCCCCCCCCCCCCCCCC(=O)O)C(=O)O)C(=O)NCC(=O)NCC(=O)N[C@@H](CO)C(=O)N[C@@H](CCCCNC(=O)[C@H](CCCCNc1c(NCCCCCN(O)C(=O)CCC(=O)NCCCCCN(O)C(=O)CCC(=O)NCCCCCN(O)C(C)=O)c(=O)c1=O)Nc1c(NCCCCCN(O)C(=O)CCC(=O)NCCCCCN(O)C(=O)CCC(=O)NCCCCCN(O)C(C)=O)c(=O)c1=O)C(=O)O)C(C)C [zirconium-89 labelled]
tissue uptake (ex vivo gamma counting; male Sprague-Dawley rats, intestine; intravenous, 1 nmol, 24 h): 0.225 %ID/g

CC(=O)c1c(C)c2cnc(Nc3ccc(C4CCN(CCS(C)(=O)=O)CC4)cn3)nc2n(C2CCCC2)c1=O
CNS function (Sprague-Dawley rat; oral, 20, 80, 320 mg/kg, 3 and 24 h): no effect

CC(C)(c1ccccc1)c1cc(-n2nc3ccccc3n2)c(O)c(C(C)(C)c2ccccc2)c1
mean daily dermal uptake (exposure assessment; human, age 21-60 years; cream): 0.9 ng/kg body weight/day

CC(C)(C)NC(=O)[C@@H]1C[C@@H]2CCCC[C@@H]2CN1C[C@@H](O)[C@H](Cc1ccccc1)NC(=O)[C@H](CC(N)=O)NC(=O)c1ccc2ccccc2n1
CC50 (African green monkey cells; 5 days): 18.2 µM

CCOC(=O)C(CCCOC)NC(=O)c1ccc(C2CC2)c(Cc2ccc(F)cc2)n1 (stereo not drawn)
Papp (PAMPA): 0.66 ×10⁻⁶ cm/s

COc1c(CCC[P+](c2ccccc2)(c2ccccc2)c2ccccc2)cc2c(c1OC)OCO2.[I-]
GI50 (K562; SRB): -6.28 log M

CN1CC[C@@H](c2c(O)cc(O)c3c(=O)cc(-c4ccc(C(F)(F)F)cc4Cl)oc23)[C@@H]1CO
patients with adverse event (measured: rectal abscess; B-cell malignancies or AML; oral, 100 mg, grade 3 to 4, continuous dosing): 0%

C[C@@H]1NC(=O)[C@H](CCCCNC(=O)CO/N=C/C(=O)NCCCC[C@@H]2NC(=O)[C@@H](Cc3ccccc3)NC(=O)[C@H](CC(=O)O)NC(=O)CNC(=O)[C@H](CCCNC(=N)N)NC2=O)NC(=O)CNC(=O)[C@@H]2CCCN2C(=O)[C@H](CCCCNC(=O)CO/N=C/C(=O)NCCCC[C@@H]2NC(=O)[C@@H](Cc3ccccc3)NC(=O)[C@H](CC(=O)O)NC(=O)CNC(=O)[C@H](CCCNC(=N)N)NC2=O)NC(=O)[C@H](CCCCNC(=O)CN2CCCNCCNCCCNCC2)NC(=O)[C@H](CCCCNC(=O)CO/N=C/C(=O)NCCCC[C@@H]2NC(=O)[C@@H](Cc3ccccc3)NC(=O)[C@H](CC(=O)O)NC(=O)CNC(=O)[C@H](CCCNC(=N)N)NC2=O)NC(=O)CNC(=O)[C@@H]2CCCN2C(=O)[C@H](CCCCNC(=O)CO/N=C/C(=O)NCCCC[C@@H]2NC(=O)[C@@H](Cc3ccccc3)NC(=O)[C@H](CC(=O)O)NC(=O)CNC(=O)[C@H](CCCNC(=N)N)NC2=O)NC1=O [copper-64 labelled]
tissue uptake (normal mice, liver; intravenous, 0.74 MBq, 24 h post-injection): 5.03 ± 0.41 %ID/g

O=c1ccc2ccc3occc3c2o1
accuracy (rat plasma; 8 ng/mL, 2 weeks, -70 °C, post-preparative stability): 92%

CN1CCN(S(=O)(=O)c2cc([N+](=O)[O-])ccc2N(CCOS(C)(=O)=O)CCOS(C)(=O)=O)CC1
concentration (NSG mice female, plasma; intraperitoneal, 25 mg/kg, 0.5 h): 1940 nM

CC[C@H](C)[C@H](N)C(=O)N[C@@H](CC(C)C)C(=O)N[C@@H](CCCNC(=N)N)C(=O)N[C@@H](CCCCN)C(=O)N[C@@H](CO)C(=O)N[C@H](C(=O)N[C@H](C(=O)N[C@H](C(=O)N[C@H](C(=O)N[C@H](C(=O)O)C(C)C)[C@@H](C)O)[C@@H](C)O)[C@@H](C)O)[C@@H](C)O
Kd (SCRIB PDZ3 domain; binding, fluorescence polarization; solution; Scribble PDZ3 domain): 40.1 µM

CC1(C)c2nc(-c3ccc(F)cc3)c(Nc3ccc(F)cc3)n2CCN1C(=O)CN
concentration at 24 h (NMRI mouse Plasmodium berghei-infected, blood; oral, 5 mg/kg, 24 h, monotherapy): 77 nM

CCc1ccc(CC/C=C/c2ccc3c(c2)C(=O)CC3)cc1
LDH serum activity (Sprague-Dawley rat, female; oral, 30 mg/kg/day, 14 days): 570 U/L

O=C(c1ccc(F)c(F)c1Nc1ccc(I)cc1F)N1CC(O)([C@@H]2CCCCN2)C1
fatal adverse events (human patients; oral, dose not given, dose escalation, tablet): 0%

N[C@@H]1c2ccccc2OC12CCN(c1cnc3c(N4CCCc5ncccc54)n[nH]c3n1)CC2
dose-limiting toxicity (advanced metastatic solid tumour patients; oral, 100 mg once daily, cycle 1, 21 days): 0%

NC(=O)[C@H]1CCN(c2ncnc(N)c2F)C[C@@H]1N1CCC[C@@H](Nc2cc(Cl)cc(C(F)(F)F)c2)C1=O
grade ≥3 hypocalcaemia (B-cell malignancy patients; oral, 164 mg twice daily, dose): 25%

CO[C@H]1C[C@@H]2CC[C@@H](C)[C@@](O)(O2)C(=O)C(=O)N2CCCC[C@H]2C(=O)O[C@H]([C@H](C)C[C@@H]2CC[C@@H](OC(=O)NCCOCCOCCOCCOCCOCCOCCOCCOCCC(=O)N3CCc4cc(Cn5nc(-c6ccc7oc(N)nc7c6)c6c(N)ncnc65)ccc4C3)[C@H](OC)C2)C[C@@H](O)[C@H](C)/C=C(\C)[C@@H](O)[C@@H](OC)C(=O)[C@H](C)C[C@H](C)/C=C/C=C/C=C/1C
AEs leading to discontinuation (dose-escalation trial; patients with advanced solid tumours; intravenous, 1.6 mg/3 mg weekly, any grade): 0%

C[C@]1(CO)Cc2ncn(-c3ccc(C#N)c(Cl)c3)c2C(=O)O1
drug-related orthostatic hypotension (healthy Chinese subjects; dose not given, single dose, all doses): 4.2%

CC(C)CC(=O)OC[C@H]1O[C@@](C#N)(c2ccc3c(N)ncnn23)[C@H](O)[C@@H]1O
fraction unbound (monkey plasma; 0.9 µM): 0.295

CC(C)C[C@H](NC(=O)[C@@H]1CCCN1C(=O)[C@@H](NC(=O)[C@H](CCC(=O)O)NC(=O)[C@H](CCCCN)NC(=O)[C@H](CO)NC(=O)[C@@H](NC(=O)[C@H](CCCNC(=N)N)NC(=O)[C@H](C)NC(=O)CN)C(C)C)[C@@H](C)O)C(=O)O
Kd (SCRIB PDZ3 domain; binding, fluorescence polarization; solution; Scribble PDZ3 domain): 1.7 µM

Some of these lines once more:
CC(C)C[C@H](NC(=O)[C@@H]1CCCN1C(=O)[C@@H](NC(=O)[C@H](CCC(=O)O)NC(=O)[C@H](CCCCN)NC(=O)[C@H](CO)NC(=O)[C@@H](NC(=O)[C@H](CCCNC(=N)N)NC(=O)[C@H](C)NC(=O)CN)C(C)C)[C@@H](C)O)C(=O)O
Kd (SCRIB PDZ3 domain; binding, fluorescence polarization; solution; Scribble PDZ3 domain): 1.7 µM

O=c1ccc2ccc3occc3c2o1
accuracy (rat plasma; 8 ng/mL, 2 weeks, -70 °C, post-preparative stability): 92%

CC[C@H](C)[C@H](N)C(=O)N[C@@H](CC(C)C)C(=O)N[C@@H](CCCNC(=N)N)C(=O)N[C@@H](CCCCN)C(=O)N[C@@H](CO)C(=O)N[C@H](C(=O)N[C@H](C(=O)N[C@H](C(=O)N[C@H](C(=O)N[C@H](C(=O)O)C(C)C)[C@@H](C)O)[C@@H](C)O)[C@@H](C)O)[C@@H](C)O
Kd (SCRIB PDZ3 domain; binding, fluorescence polarization; solution; Scribble PDZ3 domain): 40.1 µM

O=C(O)CCC(CP(=O)(O)O)C(=O)O (stereo not drawn)
stability (rat plasma; 28 days, -80 °C, frozen storage): stable

O=C(c1ccc(F)c(F)c1Nc1ccc(I)cc1F)N1CC(O)([C@@H]2CCCCN2)C1
fatal adverse events (human patients; oral, dose not given, dose escalation, tablet): 0%
